Experimental data pooled from the literature.
Lines come from different studies, so protocols differ. Numbers after ± are the reported error.
EPHB1: Ephrin type-B receptor 1 (EPHB1, Homo sapiens, UniProt P54762)
DCLRE1A: DNA cross-link repair 1A protein (DCLRE1A, Homo sapiens, UniProt Q6PJP8)
Sequence of UniProt Q6PJP8 (whole entry, looked up): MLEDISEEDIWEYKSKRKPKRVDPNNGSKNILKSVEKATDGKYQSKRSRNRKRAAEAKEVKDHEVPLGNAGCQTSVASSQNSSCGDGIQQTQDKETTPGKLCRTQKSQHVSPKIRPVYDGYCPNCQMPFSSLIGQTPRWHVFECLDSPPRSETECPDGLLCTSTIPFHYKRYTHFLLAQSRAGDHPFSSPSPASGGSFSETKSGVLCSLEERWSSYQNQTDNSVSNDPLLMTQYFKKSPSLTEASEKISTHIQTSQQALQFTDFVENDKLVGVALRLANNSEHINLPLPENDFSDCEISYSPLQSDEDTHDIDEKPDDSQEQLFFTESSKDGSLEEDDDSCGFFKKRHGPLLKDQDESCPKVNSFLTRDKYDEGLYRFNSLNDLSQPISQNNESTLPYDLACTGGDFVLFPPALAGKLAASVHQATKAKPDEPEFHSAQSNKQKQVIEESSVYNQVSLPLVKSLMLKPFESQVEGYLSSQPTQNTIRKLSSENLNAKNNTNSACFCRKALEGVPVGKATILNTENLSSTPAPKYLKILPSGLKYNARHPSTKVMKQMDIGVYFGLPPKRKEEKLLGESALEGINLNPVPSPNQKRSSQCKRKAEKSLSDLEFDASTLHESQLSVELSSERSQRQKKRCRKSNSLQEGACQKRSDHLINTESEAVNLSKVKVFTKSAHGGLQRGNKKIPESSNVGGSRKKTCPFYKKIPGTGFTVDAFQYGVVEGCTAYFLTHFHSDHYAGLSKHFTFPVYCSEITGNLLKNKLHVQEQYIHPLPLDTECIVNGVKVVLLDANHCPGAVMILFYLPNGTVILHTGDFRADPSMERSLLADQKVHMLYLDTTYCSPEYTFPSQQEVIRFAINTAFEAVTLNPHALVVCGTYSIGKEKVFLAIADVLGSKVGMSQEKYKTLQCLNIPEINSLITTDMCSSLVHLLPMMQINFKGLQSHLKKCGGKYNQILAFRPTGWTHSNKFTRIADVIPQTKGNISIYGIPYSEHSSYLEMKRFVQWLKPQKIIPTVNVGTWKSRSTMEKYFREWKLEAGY
MAP3K19: Mitogen-activated protein kinase kinase kinase 19 (MAP3K19, Homo sapiens, UniProt Q56UN5)
STK11: Serine/threonine-protein kinase STK11 (STK11, Homo sapiens, UniProt Q15831)
Sequence of UniProt Q15831 (whole entry, looked up): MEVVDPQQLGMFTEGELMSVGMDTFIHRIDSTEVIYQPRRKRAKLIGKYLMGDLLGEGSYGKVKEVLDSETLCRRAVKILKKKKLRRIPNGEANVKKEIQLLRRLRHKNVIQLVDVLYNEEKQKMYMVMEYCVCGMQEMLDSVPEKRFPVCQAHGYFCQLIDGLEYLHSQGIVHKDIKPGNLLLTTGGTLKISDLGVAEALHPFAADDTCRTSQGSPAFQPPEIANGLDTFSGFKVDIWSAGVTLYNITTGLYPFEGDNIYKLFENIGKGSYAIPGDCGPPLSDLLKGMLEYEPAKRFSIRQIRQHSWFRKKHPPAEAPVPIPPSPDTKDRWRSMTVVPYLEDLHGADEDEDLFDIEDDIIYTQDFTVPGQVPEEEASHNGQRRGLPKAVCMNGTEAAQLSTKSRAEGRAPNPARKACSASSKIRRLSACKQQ
Pik3cb with p85 beta: Phosphatidylinositol 4,5-bisphosphate 3-kinase catalytic subunit beta isoform, with p85 beta (Pik3cb, Mus musculus, UniProt Q8BTI9)
Sequence of UniProt Q8BTI9 (whole entry, looked up): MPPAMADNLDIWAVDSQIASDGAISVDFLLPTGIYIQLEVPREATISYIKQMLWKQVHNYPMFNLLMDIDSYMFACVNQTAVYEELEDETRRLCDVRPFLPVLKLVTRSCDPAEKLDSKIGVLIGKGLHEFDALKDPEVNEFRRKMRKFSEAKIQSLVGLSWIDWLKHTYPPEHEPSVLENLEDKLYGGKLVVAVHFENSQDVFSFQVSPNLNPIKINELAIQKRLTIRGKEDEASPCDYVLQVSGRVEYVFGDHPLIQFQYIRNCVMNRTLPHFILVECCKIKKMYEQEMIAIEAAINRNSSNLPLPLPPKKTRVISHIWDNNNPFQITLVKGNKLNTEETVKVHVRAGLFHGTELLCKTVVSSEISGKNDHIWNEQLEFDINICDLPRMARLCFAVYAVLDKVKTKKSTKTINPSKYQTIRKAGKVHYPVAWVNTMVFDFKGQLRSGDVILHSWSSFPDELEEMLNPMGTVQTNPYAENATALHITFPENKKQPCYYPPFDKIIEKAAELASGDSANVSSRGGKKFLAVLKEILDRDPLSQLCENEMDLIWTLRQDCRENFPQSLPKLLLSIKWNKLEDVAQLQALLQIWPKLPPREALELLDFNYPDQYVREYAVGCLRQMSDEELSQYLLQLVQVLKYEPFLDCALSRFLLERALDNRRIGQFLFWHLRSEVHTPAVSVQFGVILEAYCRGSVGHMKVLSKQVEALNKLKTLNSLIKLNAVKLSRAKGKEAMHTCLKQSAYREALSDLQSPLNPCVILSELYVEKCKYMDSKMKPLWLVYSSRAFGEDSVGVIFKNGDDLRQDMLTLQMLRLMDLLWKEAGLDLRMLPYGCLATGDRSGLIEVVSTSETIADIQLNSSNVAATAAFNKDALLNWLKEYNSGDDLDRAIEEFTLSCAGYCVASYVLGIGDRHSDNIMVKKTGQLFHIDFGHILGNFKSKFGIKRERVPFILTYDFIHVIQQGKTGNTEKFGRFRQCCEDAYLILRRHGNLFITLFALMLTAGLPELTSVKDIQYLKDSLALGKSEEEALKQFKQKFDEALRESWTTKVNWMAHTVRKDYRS
ARAF: Serine/threonine-protein kinase A-Raf (ARAF, Homo sapiens, UniProt P10398)
Sequence of UniProt Q92626 (whole entry, looked up): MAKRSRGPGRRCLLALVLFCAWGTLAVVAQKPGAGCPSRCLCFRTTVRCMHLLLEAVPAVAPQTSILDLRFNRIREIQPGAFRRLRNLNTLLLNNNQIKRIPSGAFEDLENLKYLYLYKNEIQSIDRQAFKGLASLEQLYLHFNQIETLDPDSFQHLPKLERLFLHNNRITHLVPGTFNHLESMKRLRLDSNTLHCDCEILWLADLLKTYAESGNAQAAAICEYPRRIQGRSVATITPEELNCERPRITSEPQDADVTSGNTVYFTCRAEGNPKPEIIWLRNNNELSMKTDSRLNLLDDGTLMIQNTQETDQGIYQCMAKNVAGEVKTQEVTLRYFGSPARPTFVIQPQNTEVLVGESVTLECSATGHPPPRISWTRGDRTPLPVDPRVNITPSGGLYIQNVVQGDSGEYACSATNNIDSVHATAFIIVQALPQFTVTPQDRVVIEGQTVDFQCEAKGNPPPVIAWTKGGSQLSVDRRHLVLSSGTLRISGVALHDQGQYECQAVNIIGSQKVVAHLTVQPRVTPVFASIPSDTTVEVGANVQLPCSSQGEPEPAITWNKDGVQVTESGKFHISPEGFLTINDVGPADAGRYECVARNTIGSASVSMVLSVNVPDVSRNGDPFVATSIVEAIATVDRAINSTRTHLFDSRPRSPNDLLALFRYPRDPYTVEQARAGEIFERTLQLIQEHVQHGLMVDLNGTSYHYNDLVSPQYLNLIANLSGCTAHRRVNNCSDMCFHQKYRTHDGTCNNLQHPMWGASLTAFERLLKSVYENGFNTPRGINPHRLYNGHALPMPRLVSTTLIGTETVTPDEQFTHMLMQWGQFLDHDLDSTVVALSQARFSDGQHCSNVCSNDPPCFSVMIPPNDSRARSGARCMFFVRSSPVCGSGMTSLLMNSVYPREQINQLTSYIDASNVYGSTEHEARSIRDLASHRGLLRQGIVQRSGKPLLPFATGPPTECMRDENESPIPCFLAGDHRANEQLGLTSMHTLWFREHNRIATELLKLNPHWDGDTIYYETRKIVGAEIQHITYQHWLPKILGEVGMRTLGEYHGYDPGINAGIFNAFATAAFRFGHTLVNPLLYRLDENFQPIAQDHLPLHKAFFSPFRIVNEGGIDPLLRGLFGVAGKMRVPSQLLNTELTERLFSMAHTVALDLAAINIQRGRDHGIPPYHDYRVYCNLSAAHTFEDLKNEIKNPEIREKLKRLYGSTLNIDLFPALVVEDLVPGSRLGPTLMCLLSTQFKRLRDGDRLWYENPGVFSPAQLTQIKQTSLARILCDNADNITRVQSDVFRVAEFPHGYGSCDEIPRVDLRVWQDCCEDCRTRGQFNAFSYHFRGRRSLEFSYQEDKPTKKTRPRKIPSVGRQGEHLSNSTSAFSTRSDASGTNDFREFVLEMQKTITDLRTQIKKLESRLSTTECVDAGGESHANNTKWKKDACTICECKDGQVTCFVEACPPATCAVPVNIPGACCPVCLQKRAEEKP
Sequence of UniProt P10398 (whole entry, looked up): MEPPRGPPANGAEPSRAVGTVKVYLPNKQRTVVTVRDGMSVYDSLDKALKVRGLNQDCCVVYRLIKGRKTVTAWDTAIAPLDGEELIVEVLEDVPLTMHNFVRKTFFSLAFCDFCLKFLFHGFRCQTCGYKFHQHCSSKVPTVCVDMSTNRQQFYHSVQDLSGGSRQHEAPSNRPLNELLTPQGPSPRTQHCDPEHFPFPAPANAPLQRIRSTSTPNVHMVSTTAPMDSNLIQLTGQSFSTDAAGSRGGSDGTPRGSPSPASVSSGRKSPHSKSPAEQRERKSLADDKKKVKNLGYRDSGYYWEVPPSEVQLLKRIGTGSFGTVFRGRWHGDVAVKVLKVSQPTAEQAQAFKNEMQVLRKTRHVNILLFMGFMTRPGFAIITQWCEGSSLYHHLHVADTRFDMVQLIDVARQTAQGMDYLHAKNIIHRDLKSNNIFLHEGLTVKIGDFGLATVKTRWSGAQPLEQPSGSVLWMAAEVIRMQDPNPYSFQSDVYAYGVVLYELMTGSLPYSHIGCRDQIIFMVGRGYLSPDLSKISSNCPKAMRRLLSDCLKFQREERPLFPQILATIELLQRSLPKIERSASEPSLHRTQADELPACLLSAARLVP
Sequence of UniProt P45983 (whole entry, looked up): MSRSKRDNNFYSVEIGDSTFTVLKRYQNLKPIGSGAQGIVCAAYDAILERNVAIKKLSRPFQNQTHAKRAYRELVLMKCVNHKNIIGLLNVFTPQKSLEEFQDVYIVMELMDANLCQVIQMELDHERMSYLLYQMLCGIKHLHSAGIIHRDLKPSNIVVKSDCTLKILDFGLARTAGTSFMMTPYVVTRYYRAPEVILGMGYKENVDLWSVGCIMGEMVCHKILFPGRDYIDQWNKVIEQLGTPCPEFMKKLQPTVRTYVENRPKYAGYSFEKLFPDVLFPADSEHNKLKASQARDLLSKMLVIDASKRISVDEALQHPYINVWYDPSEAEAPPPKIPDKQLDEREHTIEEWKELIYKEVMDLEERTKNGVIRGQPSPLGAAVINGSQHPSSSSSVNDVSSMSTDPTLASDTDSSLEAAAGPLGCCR

`C=CC(=O)N1CCC[C@@H](n2nc(-c3ccc(Oc4ccccc4)cc3)c3c(N)ncnc32)C1` gave a remaining activity of 165% (EPHB1; 1 µM).
The remaining activity of `Cc1cc(Nc2cc(N3CCN(C)CC3)nc(Sc3ccc(NC(=O)C4CC4)cc3)n2)[nH]n1` is reported as 107% (cAMP-dependent protein kinase catalytic subunit alpha (PRKACA, Homo sapiens, UniProt P17612); kinase activity, KinaseProfiler; 0.03 µM, species human; relative to: control).
With `C[C@H]1[C@H](OC(=O)CCC(=O)O)O[C@@H]2O[C@@]3(C)CC[C@H]4[C@H](C)CC[C@@H]1[C@@]24OO3` the remaining activity was 61.6% (Non-structural polyprotein pORF1, RNA-dependent RNA polymerase (Hepatitis E virus genotype 1, UniProt P33424); polymerase activity, inhibitor, colorimetric; 4.8 µM; relative to: solvent control).
For `OCCS`, the remaining activity was 90.8 ± 1.2% (uncharacterized protein (Lacticaseibacillus rhamnosus, UniProt A0A7S7JIA0); inhibitor; 1000 µM, 5 min; relative to: untreated).
The remaining activity of `NC/C(=C\F)COc1cccc(Cn2c(=S)[nH]c(=O)c3[nH]cnc32)c1` is reported as 99.8% (Peroxidasin homolog (PXDN, Homo sapiens, UniProt Q92626); enzyme activity, inhibitor, Amplex UltraRed; 0.3125 µM; relative to: control).
With `CC#CC(=O)N1CCC[C@H]1c1nc(-c2ccc(C(=O)Nc3ccccn3)cc2)c2c(N)nccn12` the remaining activity was 98.8 ± 3.7% (Calcium/calmodulin-dependent protein kinase type 1 (CAMK1, Homo sapiens, UniProt Q14012); kinase activity, inhibitor, HotSpot radiometric; 100 nM, with: ATP 10 µM).
`O=C1/C(=C/c2ccc(O)c(O)c2)Oc2cc(O)ccc21` gave a remaining activity of 53.2% (DCLRE1A; exonuclease activity, inhibitor, fluorescence HTS; 10 µM, 80 min, with: 8 nM 5P-FQ substrate; relative to: high and low controls).
`COc1cc(N2CCN(C)CC2)ccc1Nc1nc(N)n(C(=S)NCc2c(Cl)cccc2Cl)n1` has a remaining activity of 0% (MAP3K19; enzyme activity; 10 µM; relative to: control).
`COc1cc(F)ccc1-c1ncnc(Nc2cccc(C[S@](C)(=N)=O)c2)n1` gave a remaining activity of 90% (STK11; kinase activity; 10 µM, with: 10 µM ATP).
For `Cc1cc(NC(=O)c2cccc(NC(=O)/C=C/CN(C)C)c2)ccc1Nc1nccc(-c2cccnc2)n1`, the remaining activity was 0.655 (Mitogen-activated protein kinase 8 (MAPK8, Homo sapiens, UniProt P45983); enzyme activity, inhibitor; 0.02032 µM, 0 h, unit not given, with: GSH 10 mM pre-incubation; relative to: vehicle).
`COc1ccc(F)cc1C(=O)NCc1ccc(-c2nn([C@@H](C)C(F)(F)F)c(N)c2C(N)=O)cc1` has a remaining activity of 74.9 ± 2.7% (Serine/threonine-protein kinase 26 (STK26, Homo sapiens, UniProt Q9P289); kinase activity, inhibitor, HotSpot radiometric; 1000 nM, with: ATP at Km).
The remaining activity of `COc1cc(N2CCN(C)CC2)ccc1Nc1nc(N)n(C(=O)NCc2c(Cl)cccc2Cl)n1` is reported as 5% (STK11; enzyme activity; 10 µM; relative to: control).
For `N#CC(C#N)=C(N)/C(C#N)=C/c1cc(O)c(O)c(O)c1`, the remaining activity was 17.3% (DCLRE1A; exonuclease activity, inhibitor, fluorescence HTS; 10 µM, 80 min, with: 8 nM 5P-FQ substrate).
The remaining activity of `O=C1NC(=O)/C(=C/c2ccc(-c3ccc(F)cc3O)o2)S1` is reported as 94% (EPHB1; enzyme activity; 10 µM).
The remaining activity of `Cc1ccc(NC(=O)c2ccc(C)c(C(F)(F)F)c2)cc1C#Cc1nn(C2CCC(O)CC2)c2ncnc(N)c12` (stereo not drawn) is reported as 93% (Pik3cb with p85 beta; enzyme activity, inhibitor; 10 µM, p110b/p85b)(m mouse, with: ATP 10 µM).
`CNc1ncc2c(/C=C/C(=O)N3CCC(OC)CC3)nn(Cc3cccc(C(F)(F)F)c3)c2n1` has a remaining activity of 102% (Myosin light chain kinase, smooth muscle (MYLK, Homo sapiens, UniProt Q15746); kinase activity, inhibitor; 1 µM; relative to: untreated control).
For `O=C(NC1CCC1)c1ccc2nc(-c3cccc(NS(=O)(=O)NCCN4CCCCC4)c3)cn2c1`, the remaining activity was 28% (MAP3K19; enzyme activity; 10 µM).
`O=C(O)c1ccc(Nc2ncc3c(n2)-c2ccc(Cl)cc2C(c2c(F)cccc2F)=NC3)cc1` has a remaining activity of 112% (PKCθ(h); kinase activity; 1 µM).
`O=C1c2cccc(O)c2C(=O)c2c(O)cc(CO)cc21` has a remaining activity of 50.2% (DCLRE1A; exonuclease activity, inhibitor, fluorescence HTS; 10 µM, 80 min, with: 8 nM 5P-FQ substrate; relative to: high and low controls).
With `C[C@@H](Oc1ccc(S(C)(=O)=O)cc1C(=O)N1C[C@@H]2C[C@]2(c2cc(C(F)(F)F)on2)C1)C(F)(F)F` the remaining activity was 93.9% (Sodium- and chloride-dependent glycine transporter 1 (SLC6A9, Homo sapiens, UniProt P48067, G373S); glycine uptake, inhibitor, [3H]glycine uptake; 0.001 µM, G319S mutant, log concentration 1, with: [3H]glycine; relative to: no inhibitor).
`C[n+]1c2cc(N)ccc2cc2ccc(N)cc21.[Cl-]` has a remaining activity of 19.8% (DCLRE1A; exonuclease activity, inhibitor, fluorescence HTS; 10 µM, 80 min, with: 8 nM 5P-FQ substrate; relative to: high and low controls).
The remaining activity of `Cc1ccc(C(=O)NCc2ccsc2)cc1C#Cc1cn(C(C)C)c2ncnc(N)c12` is reported as 100% (Phosphatidylinositol 4,5-bisphosphate 3-kinase catalytic subunit beta isoform, with p85 alpha (PIK3CB, Homo sapiens, UniProt P42338); kinase activity; 1 µM, with: ATP at Km).
With `CC[C@H](CC[C@@H](C)[C@H]1CC[C@H]2[C@@H]3CC=C4C[C@@H](O)CC[C@]4(C)[C@H]3CC[C@]12C)C(C)C` the remaining activity was 20.4% (DCLRE1A; exonuclease activity, inhibitor, fluorescence HTS; 10 µM, 80 min, with: 8 nM 5P-FQ substrate).
`C=CC(=O)N1CCC[C@@H](n2nc(-c3ccc(Oc4ccccc4)cc3)c3c(N)ncnc32)C1` gave a remaining activity of 37 ± 0.8% (ARAF; kinase activity, inhibitor, HotSpot radiometric; 100 nM, with: ATP 10 µM).
`O=C(O)c1cc(O)c(=O)c2c(O)c(O)ccc2c1` gave a remaining activity of 28.8% (DCLRE1A; exonuclease activity, inhibitor, fluorescence HTS; 10 µM, 80 min, with: 8 nM 5P-FQ substrate).
For `C=CC(=O)N1CCC([C@@H]2CCNc3c(C(N)=O)c(-c4ccc(Oc5ccccc5)cc4)nn32)CC1`, the remaining activity was 87.4 ± 1.4% (ARAF; kinase activity, inhibitor, HotSpot radiometric; 100 nM, with: ATP 10 µM).
The remaining activity of `O=C1C=C2CC3(O)COc4c(ccc(O)c4O)C3=C2C=C1O` (stereo not drawn) is reported as 18.6% (DCLRE1A; exonuclease activity, inhibitor, fluorescence HTS; 10 µM, 80 min, with: 8 nM 5P-FQ substrate).
For `COc1cc(-c2cncc3c2CN(C)Cc2cc(N4CCNCC4)ccc2-3)cc(OC)c1OC`, the remaining activity was 90% (Pik3cb with p85 beta; kinase activity; 1 µM, p110b/p85b)(m mouse, with: ATP 10 µM; relative to: DMSO).
For `CC[n+]1c(/C=C/C=C2/N(C)c3ccccc3C2(C)C)sc2ccccc21.[I-]`, the remaining activity was 30.8% (DCLRE1A; exonuclease activity, inhibitor, fluorescence HTS; 10 µM, 80 min, with: 8 nM 5P-FQ substrate; relative to: high and low controls).
The remaining activity of `COc1cc(Nc2ncc3c(n2)-c2ccc(Cl)cc2C(c2c(F)cccc2OC)=NC3)ccc1C(=O)O` is reported as 94% (MAP3K8; kinase activity; 1 µM).

Some of these lines once more:
For `COc1cc(-c2cncc3c2CN(C)Cc2cc(N4CCNCC4)ccc2-3)cc(OC)c1OC`, the remaining activity was 90% (Pik3cb with p85 beta; kinase activity; 1 µM, p110b/p85b)(m mouse, with: ATP 10 µM; relative to: DMSO).
With `CC#CC(=O)N1CCC[C@H]1c1nc(-c2ccc(C(=O)Nc3ccccn3)cc2)c2c(N)nccn12` the remaining activity was 98.8 ± 3.7% (Calcium/calmodulin-dependent protein kinase type 1 (CAMK1, Homo sapiens, UniProt Q14012); kinase activity, inhibitor, HotSpot radiometric; 100 nM, with: ATP 10 µM).
`C=CC(=O)N1CCC[C@@H](n2nc(-c3ccc(Oc4ccccc4)cc3)c3c(N)ncnc32)C1` gave a remaining activity of 165% (EPHB1; 1 µM).
The remaining activity of `COc1cc(Nc2ncc3c(n2)-c2ccc(Cl)cc2C(c2c(F)cccc2OC)=NC3)ccc1C(=O)O` is reported as 94% (MAP3K8; kinase activity; 1 µM).
